Measured values gathered from unrelated publications.
Each numbered part is a random draw from the data of one study; scales do not carry over between parts. Positions count from the first letter of the parent shown.

Series 1 — technique: DHFR PCA, deep sequencing; medium: yeast; added: (+)-ABA 0.39 µM; baseline: wild-type fitted maximum; reading: higher = stronger binding; quantity: relative binding score
Target: ABI1, truncated, D143A, DHFR fusion (Arabidopsis thaliana)
Setting: methotrexate growth selection, single substitutions
Starting sequence: PYL1, truncated, DHFR fusion (Arabidopsis thaliana); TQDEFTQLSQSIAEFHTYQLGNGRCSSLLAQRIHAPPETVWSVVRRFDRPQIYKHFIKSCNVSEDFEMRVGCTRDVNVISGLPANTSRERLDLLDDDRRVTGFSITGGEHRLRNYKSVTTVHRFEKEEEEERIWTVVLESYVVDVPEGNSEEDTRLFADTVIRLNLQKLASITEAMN
E14C: -2.63%
N22G: 39.5%
F15C: -6.46%
R90M: 5.74%
V100G: -6.74%
F5A: 19.8%
M68W: 0.41%
N77S: 63.7%
Q167L: 33.2%
L112C: 1.62%
G108L: -9.75%
E67A: 25.7%
R99P: -8.11%
T73V: 57.1%
R163V: 5.77%
F5K: 11%
L94Y: 6.18%
V118S: 7.28%
H55T: 52.6%
E4D: 39%
E131S: 56.8%
P50D: 1.15%
V145K: -36.2%
V143K: -10.6%
R111A: 0.384%

Series 2 — technique: RNA Bind-n-Seq; molecule type: RNA; medium: in vitro; tested at: not given; baseline: input RNA pool; reading: higher = stronger binding; quantity: bound/input enrichment
Target: RING finger protein unkempt homolog, zinc fingers 1-6, GST-SBP tag (UNK, Homo sapiens, UniProt Q9C0B0, residues 30-357)
UniProt Q9C0B0, sequence (30-357, looked up): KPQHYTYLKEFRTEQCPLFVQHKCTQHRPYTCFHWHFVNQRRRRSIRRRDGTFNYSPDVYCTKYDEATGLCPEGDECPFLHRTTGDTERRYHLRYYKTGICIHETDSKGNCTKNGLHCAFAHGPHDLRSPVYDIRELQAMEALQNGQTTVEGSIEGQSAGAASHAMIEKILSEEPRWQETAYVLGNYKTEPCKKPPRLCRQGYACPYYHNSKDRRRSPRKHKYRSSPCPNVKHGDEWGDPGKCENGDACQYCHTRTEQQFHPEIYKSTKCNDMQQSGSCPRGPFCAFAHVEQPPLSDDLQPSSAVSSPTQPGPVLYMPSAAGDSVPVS
Setting: RNA with constant flanks, human and mouse sites, ends assumed
Shared flanks, not repeated: GGGAGUUCUACAGUCCGACGAUC … CAACAGAGGAUUGAGCAUCA
GGAUGCCACCAAAGCCUCCCAUUUGCUAUAGUUUUAUUUCAUGCACUGGAAACUGAGCAUUUAUCGUAGAGUACCGCCAAGCUUUCACUCCAGUGCCGUUUGGCAAUGCAAUUUUUUUUA: 3.37 ratio
GAUCCCAAAAUUCAUCUCUAAUGUGGUUUUUAAAUGCUGGAGGAUUCCAAUCAAUAUAAAUAUAUAUAUAUAUAUACACACACAUAUAUAAAAAGUAUAAUUUUUCUAUUUUUGUUUUUG: 2.99 ratio
GGAUCACCAGGAGAUGAAUUUUGUAAGCAGCGCCUUCCUCAACUAAAUUCCAAGGAUAAUAAUUUUUUGACCUGUACAGAAGAAGAUGGGGUGCUGGUGUACCACCACGCCCAGGAUGUC: 0.218 ratio
CGUGCUUAUGCUCUUCUAUGAGAGAGAUGAAUUGGGGAGAAUUGUCUCCAUUUUAUAGAUUAGUUUCUUUCUAAAUUAUGACCAAAAAUAUUUUGCUAUUUCUUUCUUUGUAUAUGGACA: 5.86 ratio
GCAGGAGAUGAAAUUCUUCCUACCUUACUAUAUAUUUGGACUCAACAUAGACUUAAUGAUUCUUUAAAAGAAGUAAUUAUUGAACUAAUUCAACUGCAGAUUUAUAUCCAUCAUCCACAA: 0.933 ratio
AAAUAUGUUGUACAUUUGAUUAAAAUUAUUUAGAUAAAUAUUACUAUGUUGACUUUUAAAUAGCUUUAUCCUAUUUUUCAUUCAUUUUGCAAAUAUUUGUUGUGUGUAGUUUCUUAACGU: 6.76 ratio
CUGGAAGGUUGUUGGCGCACGCGAUUGAAGCGGCGCACUCGGAGUAAACGCGGCUGGCGGUAGUACGUGUGUCUUUUUGCUGAGGGCAGUUAUGUUUCUCCAAUAUUACCUCAACGAGCA: 0.22 ratio
GAUUUAAAACAUAGAGACCUUGAAUACAGGUCUUGCCAUCGUUUCCUUCAUAAGCCCAGCAUAGAAAAGAUGUAUCAGUUUAAUGCUGUGUGUAGACCUGGAAAUUUUUGUCAACAGGAC: 0.677 ratio

Series 3 — technique: RNA Bind-n-Seq; molecule type: RNA; medium: in vitro; tested at: 365 nM; baseline: no-protein control; reading: higher = stronger binding; quantity: RBNS enrichment (R)
Target: RNA binding protein fox-1 homolog 2, RRM domain, GST-SBP tag (RBFOX2, Homo sapiens, UniProt O43251-10, residues 100-194)
Setting: natural RNA segment, single round, ends assumed
Shared flanks, not repeated: GGGAGUUCUACAGUCCGACGAUC … UGGAAUUCUCGGGUGCCAA
Construct (chain): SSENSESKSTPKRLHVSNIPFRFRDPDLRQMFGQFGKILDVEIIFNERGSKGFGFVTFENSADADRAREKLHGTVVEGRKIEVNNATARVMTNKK
UUCAACUGGGGGAAAAUAAAACUUUGAGCAUUUCCCUUGGAACUUGAGAUCAGAUCAUAACUCACUUGCCCAGAGGCAGCAGAAAUCUGAUCCUACUACUGGAGCUUAAA: 0.288
UACUUAUGGUGAAAGAGGACAUUUUUUUUUUCUUCAGGAUAGUUGAAAGGGCAGGCCCAACGGCUGAGAUUGACAUUUCCACUGUUGGUAGAGAGCUGUUAUUUCUAAAG: 0.273
GAGAAAACAGACAUCACCCUCUACUGCGGGGCCACACCACAUCAGUAGGACACCCCAUACCCAGGCUUGGAGGAGUGCACGCCACACCAAGCCUCUGGGUAGAAUCUGAU: 0.862
UUGCUUCUGAGGCACUAUUUGCCCUAAAAUAUAAUGGGCUUUUGUUUUGAGACUGGGUUUCAUUCUGUAGCCCAGGCUAGCCCUGAACUUGUUACAGUGUCCUUUUUUUC: 0.537
UUGCCCAAAAACACUGAAACUGUGCUCUCUGCCACCUGCCCCCCACGCUUUUUCUUUUUCUCUCUUUGGCAUUGUUCAUUUUGAGGUAGACCAUAGACUCUAGCCCAGGC: 0.948
CCCUCUUGGGUUCCUAAGUUCUAUGUUCCUUAGAGGUUCUAGCAUUAAACAGAUAAAGCCCUUCAUGGUCCUGGCUGAGGAAGAGUCUUGCUAGGGGGAUUCAGGGAAGA: 0.542
ACAUCCAGUUUUUAAGACAGAAUGAGAUGGGAAAGAGGUACAAAAUAAUCUGCUGCCAUUCCUUGUCUGAAUGGCUCAGCAGGAGUAACUGUUAUCUCCUCUCCUAAGGA: 0.243
GGACAACACGAAGAUUUCCUUUGCAUUUUCAGUAACCUUUGGAGCACACUUCUCUUAUUUCUCCUAGAGCCCCGUGCCCCUCUGAAGUGUUACCACAAUCUAGCUUACCU: 0.33

Series 4 — technique: competition protein-binding microarray; molecule type: double-stranded DNA, one strand shown; medium: in vitro; tested at: 2 µM; added: Cbf1 competitor, 0.05 µM; reading: higher = stronger binding; quantity: fluorescence intensity; shared flanks, not repeated: … GTCTTGATTCGCTTGACGCTGCTG
Target: Phosphate system positive regulatory protein PHO4, full length, GST-tagged (PHO4, Saccharomyces cerevisiae, UniProt P07270, residues 1-312)
UniProt P07270, sequence (whole entry, looked up): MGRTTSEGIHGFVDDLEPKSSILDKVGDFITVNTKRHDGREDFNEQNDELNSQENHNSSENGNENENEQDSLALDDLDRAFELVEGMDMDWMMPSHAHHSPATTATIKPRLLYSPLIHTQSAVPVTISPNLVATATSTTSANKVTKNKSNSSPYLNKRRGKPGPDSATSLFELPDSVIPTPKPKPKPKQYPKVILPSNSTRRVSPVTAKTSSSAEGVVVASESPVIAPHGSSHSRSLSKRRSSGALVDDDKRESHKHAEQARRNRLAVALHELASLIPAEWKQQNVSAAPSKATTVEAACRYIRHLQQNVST
Setting: whole 60-bp probe, lowest competitor level
AACCGCAAGTATATACACGCACACACCTATCAATCA: 9700 a.u.
AAAAGCCAACGCCATCACGTGCAAAGAAATATCTGC: 16200 a.u.
CGATCGTATTTTCGGCATGTGGATTATCCTTGCACC: 7830 a.u.
GTCTTGTCTCATTGTGACGTGGGTGTCCCCACTTCA: 6750 a.u.
CATACCCAACCTTGACGCGTGGGTGAAGATATTTGT: 10200 a.u.
TAGGCAGAGTGCTGGCACGATGATAGCGAGGGGTTG: 8410 a.u.
ATAACCGAAATGGGACACGTGCTGAAGCGGGGCAGA: 17700 a.u.
TACCTAACCCATTTGCACGTGTCGGTAATAAGAAAA: 17400 a.u.
TGAATGCACCTATTGCACGCTGCGAAGCTAACGTAG: 8580 a.u.
TCAAAGTAGCATTAGCTCATAAGGCTTTCACCCTTG: 3000 a.u.
GCGCTTGTCGCTCGGCACGATGCCAGTGCGGAGTTT: 9230 a.u.
CTTTCCCGATCTTTTCACGTGAACTTAGCACATTTG: 9490 a.u.
ATCTGGGATTGAAGACACATGAGTTTTTTTCTCACC: 6440 a.u.
TTCATCAATGAGACTCTCGTGAAGCTTACCTTGGAG: 4090 a.u.
TTGGTGAAGGTTCCTCTCGTGAAGACGCTGCTTTGG: 3290 a.u.
CCTTTGTCTGCTGTGTATGTGATATGGAAAACTAAC: 5910 a.u.
TCATTATTGAAAGTGAACGTGATTGTGAACCGCTTG: 10800 a.u.
CTTTCCCGATCTTGTTTCGTGGGTGTAGCACATTTG: 5260 a.u.
GAGAGGACAAGGGATGACATGGCCGACGTTATAAGG: 3650 a.u.

A few entries again (series 2):
AAAUAUGUUGUACAUUUGAUUAAAAUUAUUUAGAUAAAUAUUACUAUGUUGACUUUUAAAUAGCUUUAUCCUAUUUUUCAUUCAUUUUGCAAAUAUUUGUUGUGUGUAGUUUCUUAACGU: 6.76 ratio
GAUUUAAAACAUAGAGACCUUGAAUACAGGUCUUGCCAUCGUUUCCUUCAUAAGCCCAGCAUAGAAAAGAUGUAUCAGUUUAAUGCUGUGUGUAGACCUGGAAAUUUUUGUCAACAGGAC: 0.677 ratio
GAUCCCAAAAUUCAUCUCUAAUGUGGUUUUUAAAUGCUGGAGGAUUCCAAUCAAUAUAAAUAUAUAUAUAUAUAUACACACACAUAUAUAAAAAGUAUAAUUUUUCUAUUUUUGUUUUUG: 2.99 ratio
GGAUGCCACCAAAGCCUCCCAUUUGCUAUAGUUUUAUUUCAUGCACUGGAAACUGAGCAUUUAUCGUAGAGUACCGCCAAGCUUUCACUCCAGUGCCGUUUGGCAAUGCAAUUUUUUUUA: 3.37 ratio
CGUGCUUAUGCUCUUCUAUGAGAGAGAUGAAUUGGGGAGAAUUGUCUCCAUUUUAUAGAUUAGUUUCUUUCUAAAUUAUGACCAAAAAUAUUUUGCUAUUUCUUUCUUUGUAUAUGGACA: 5.86 ratio
CUGGAAGGUUGUUGGCGCACGCGAUUGAAGCGGCGCACUCGGAGUAAACGCGGCUGGCGGUAGUACGUGUGUCUUUUUGCUGAGGGCAGUUAUGUUUCUCCAAUAUUACCUCAACGAGCA: 0.22 ratio
GCAGGAGAUGAAAUUCUUCCUACCUUACUAUAUAUUUGGACUCAACAUAGACUUAAUGAUUCUUUAAAAGAAGUAAUUAUUGAACUAAUUCAACUGCAGAUUUAUAUCCAUCAUCCACAA: 0.933 ratio
GGAUCACCAGGAGAUGAAUUUUGUAAGCAGCGCCUUCCUCAACUAAAUUCCAAGGAUAAUAAUUUUUUGACCUGUACAGAAGAAGAUGGGGUGCUGGUGUACCACCACGCCCAGGAUGUC: 0.218 ratio
